# Experimental data of several laboratories.
# Protocols differ between the studies behind these lines. ± gives the spread as reported.
# Sample: plasma
test,test system,conditions,plasma concentration,Structure (SMILES)
,male C57BL/6 mice,"intraperitoneal, 30 mg/kg, 1 h",3740 ng/mL,S=C(NCCCc1c[nH]cn1)NCCCN(Cc1ccc(Cl)c(Cl)c1)c1ccc(Br)cn1
LC-MS/MS,cynomolgus monkey 2,"intravenous infusion, 0.06 mg/kg, 90 min, total concentration mid-point of PET",23 nM,Cc1c2c(n(-c3ccc(Cl)cc3Cl)c1-c1ccc(OS(=O)(=O)CCC(F)(F)F)cc1)CCN(N1CCCCC1)C2=O
,"C57BL/6 mice, diet-induced obese, high-fat diet","oral, 22.1 mg/kg/day, 4 weeks, added: rosiglitazone 24.2 mg/kg/day",14200 nM,Cc1c(C)n(Cc2cccc(OC(C)(C)C(=O)O)c2)c2ccc(C(=O)N[C@@H](C)c3ccc(C(C)(C)C)cc3)cc12
,female NSG and nude mice,"oral, 20 mg/kg/day, 1 h, end of therapy",~40000 nM,CC(C)(C)c1cc(NC(=O)Nc2ccc(Oc3ccnc4[nH]c(=O)cnc34)cc2F)n(-c2ccccc2)n1
,"cynomolgus monkey, aneurysm model","0.1 mg/kg once daily, 4 h post-dose, 2 weeks dosing",17 ± 4.2 nM,C[C@H](Oc1ccc(-c2nc(-c3ccc4[nH]cnc4c3)no2)cc1C(F)(F)F)C(F)(F)F
,cynomolgus monkey 4,"intravenous infusion, 0.2 mg/kg, 90 min, PET study midpoint",84 nM,Cc1c2c(n(-c3ccc(F)cc3Cl)c1-c1ccc(OS(=O)(=O)CCC(F)(F)F)cc1)CCN(N1CCCCC1)C2=O
,mdx mice,"oral, drinking water, 50 mg/kg, 12 wk treatment, 2 h after water withdrawal",5890 ng/mL,COc1ccc2c(c1)CN(Cc1ccc(C(=O)O)cc1)CCS2
LC-MS/MS,cynomolgus monkey 1,"intravenous infusion, 0.3 mg/kg, 90 min, total concentration mid-point of PET",38 nM,Cc1c(C(=O)NN2CCCCC2)nc(-c2ccc(Cl)cc2Cl)n1-c1ccc(OS(=O)(=O)CCC(F)(F)F)cc1
,rhesus monkey,"subcutaneous, 0.67 mg/kg, 1 h",136 ng/mL,Cn1cc(-c2ccncc2)c(-c2ccc(OCc3ccc4ccccc4n3)cc2)n1

# Repeated from above:
test,test system,conditions,plasma concentration,Structure (SMILES)
,female NSG and nude mice,"oral, 20 mg/kg/day, 1 h, end of therapy",~40000 nM,CC(C)(C)c1cc(NC(=O)Nc2ccc(Oc3ccnc4[nH]c(=O)cnc34)cc2F)n(-c2ccccc2)n1
